Experimental data from different studies.
Numbered parts are unrelated; each lists some results of a single study. Several values in a cell are separate wells, animals, samples, runs or records.
Chain of UniProt Q8WXR4 (whole entry, looked up): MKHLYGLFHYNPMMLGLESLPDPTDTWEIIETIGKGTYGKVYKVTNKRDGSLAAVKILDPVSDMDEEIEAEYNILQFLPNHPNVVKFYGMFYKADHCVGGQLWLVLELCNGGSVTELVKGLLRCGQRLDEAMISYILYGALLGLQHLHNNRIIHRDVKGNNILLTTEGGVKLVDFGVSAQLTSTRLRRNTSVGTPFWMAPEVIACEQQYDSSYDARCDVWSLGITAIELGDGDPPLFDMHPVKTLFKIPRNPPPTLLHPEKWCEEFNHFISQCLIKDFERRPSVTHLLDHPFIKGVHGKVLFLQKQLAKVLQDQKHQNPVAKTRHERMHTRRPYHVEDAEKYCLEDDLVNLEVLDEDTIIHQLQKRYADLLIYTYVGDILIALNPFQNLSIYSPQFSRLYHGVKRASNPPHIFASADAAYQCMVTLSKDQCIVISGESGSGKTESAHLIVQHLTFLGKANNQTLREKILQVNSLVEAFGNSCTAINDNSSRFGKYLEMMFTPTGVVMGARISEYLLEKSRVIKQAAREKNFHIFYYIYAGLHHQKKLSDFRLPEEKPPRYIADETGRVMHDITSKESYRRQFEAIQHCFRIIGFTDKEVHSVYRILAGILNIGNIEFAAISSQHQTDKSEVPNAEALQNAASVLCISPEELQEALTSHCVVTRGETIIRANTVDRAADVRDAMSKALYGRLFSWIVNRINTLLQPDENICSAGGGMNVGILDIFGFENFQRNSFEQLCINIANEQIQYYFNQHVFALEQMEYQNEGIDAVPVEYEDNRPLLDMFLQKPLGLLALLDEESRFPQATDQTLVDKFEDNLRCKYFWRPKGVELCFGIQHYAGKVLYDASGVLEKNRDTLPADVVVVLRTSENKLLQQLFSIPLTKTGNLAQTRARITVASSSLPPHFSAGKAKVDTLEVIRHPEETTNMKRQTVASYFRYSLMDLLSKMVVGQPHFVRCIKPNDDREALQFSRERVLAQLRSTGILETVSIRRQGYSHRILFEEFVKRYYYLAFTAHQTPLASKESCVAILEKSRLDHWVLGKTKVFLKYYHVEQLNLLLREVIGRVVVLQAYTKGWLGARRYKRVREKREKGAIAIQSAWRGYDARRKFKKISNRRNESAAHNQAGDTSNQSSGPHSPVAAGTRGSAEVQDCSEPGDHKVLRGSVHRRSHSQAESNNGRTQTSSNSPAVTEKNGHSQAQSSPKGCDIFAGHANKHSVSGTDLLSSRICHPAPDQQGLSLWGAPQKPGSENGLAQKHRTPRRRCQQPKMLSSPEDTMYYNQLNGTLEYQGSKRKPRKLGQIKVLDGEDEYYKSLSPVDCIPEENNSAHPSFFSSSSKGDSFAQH
Chain of UniProt Q9UPZ9 (whole entry, looked up): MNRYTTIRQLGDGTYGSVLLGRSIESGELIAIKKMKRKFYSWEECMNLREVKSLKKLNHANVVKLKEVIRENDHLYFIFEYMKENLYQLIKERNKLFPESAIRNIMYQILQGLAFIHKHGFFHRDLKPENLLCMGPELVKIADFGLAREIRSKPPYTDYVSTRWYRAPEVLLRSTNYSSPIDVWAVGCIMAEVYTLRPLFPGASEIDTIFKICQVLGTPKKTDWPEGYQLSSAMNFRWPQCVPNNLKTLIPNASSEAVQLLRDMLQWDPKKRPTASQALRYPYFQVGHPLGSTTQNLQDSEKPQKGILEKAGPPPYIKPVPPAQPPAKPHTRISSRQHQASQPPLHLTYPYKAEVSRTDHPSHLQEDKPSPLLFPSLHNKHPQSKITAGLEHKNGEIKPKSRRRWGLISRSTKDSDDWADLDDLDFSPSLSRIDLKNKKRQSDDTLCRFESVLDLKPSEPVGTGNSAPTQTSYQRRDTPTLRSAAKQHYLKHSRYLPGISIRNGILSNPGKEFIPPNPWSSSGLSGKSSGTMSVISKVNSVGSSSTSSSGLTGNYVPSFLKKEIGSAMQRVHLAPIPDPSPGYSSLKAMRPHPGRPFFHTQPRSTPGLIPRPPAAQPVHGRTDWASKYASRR
Chain of UniProt P10721 (whole entry, unmodified, looked up): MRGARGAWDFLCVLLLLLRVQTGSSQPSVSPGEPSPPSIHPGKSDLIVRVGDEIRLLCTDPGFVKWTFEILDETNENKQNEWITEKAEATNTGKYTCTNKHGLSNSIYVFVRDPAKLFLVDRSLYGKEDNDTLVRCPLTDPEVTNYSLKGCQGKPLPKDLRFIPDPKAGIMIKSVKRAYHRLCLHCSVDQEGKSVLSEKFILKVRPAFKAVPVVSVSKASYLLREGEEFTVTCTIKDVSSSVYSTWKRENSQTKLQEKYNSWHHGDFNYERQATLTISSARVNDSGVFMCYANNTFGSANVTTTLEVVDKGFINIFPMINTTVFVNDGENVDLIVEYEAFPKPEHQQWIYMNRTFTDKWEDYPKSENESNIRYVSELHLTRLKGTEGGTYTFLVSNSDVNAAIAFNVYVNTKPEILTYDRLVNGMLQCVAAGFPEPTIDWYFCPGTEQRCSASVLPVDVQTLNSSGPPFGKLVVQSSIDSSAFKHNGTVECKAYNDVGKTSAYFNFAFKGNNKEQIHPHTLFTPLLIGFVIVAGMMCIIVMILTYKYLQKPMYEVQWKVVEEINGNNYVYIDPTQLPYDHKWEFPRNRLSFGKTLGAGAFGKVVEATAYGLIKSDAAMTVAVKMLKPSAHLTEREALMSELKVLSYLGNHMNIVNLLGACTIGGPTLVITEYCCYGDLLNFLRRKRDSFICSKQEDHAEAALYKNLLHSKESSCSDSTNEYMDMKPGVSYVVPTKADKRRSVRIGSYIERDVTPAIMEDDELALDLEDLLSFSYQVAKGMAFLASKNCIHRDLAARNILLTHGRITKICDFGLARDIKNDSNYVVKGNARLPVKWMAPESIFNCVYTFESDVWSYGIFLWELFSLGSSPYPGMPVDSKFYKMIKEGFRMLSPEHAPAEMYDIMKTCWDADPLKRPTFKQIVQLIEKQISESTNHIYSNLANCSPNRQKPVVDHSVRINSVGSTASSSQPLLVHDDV
Chain of UniProt Q13557 (whole entry, looked up): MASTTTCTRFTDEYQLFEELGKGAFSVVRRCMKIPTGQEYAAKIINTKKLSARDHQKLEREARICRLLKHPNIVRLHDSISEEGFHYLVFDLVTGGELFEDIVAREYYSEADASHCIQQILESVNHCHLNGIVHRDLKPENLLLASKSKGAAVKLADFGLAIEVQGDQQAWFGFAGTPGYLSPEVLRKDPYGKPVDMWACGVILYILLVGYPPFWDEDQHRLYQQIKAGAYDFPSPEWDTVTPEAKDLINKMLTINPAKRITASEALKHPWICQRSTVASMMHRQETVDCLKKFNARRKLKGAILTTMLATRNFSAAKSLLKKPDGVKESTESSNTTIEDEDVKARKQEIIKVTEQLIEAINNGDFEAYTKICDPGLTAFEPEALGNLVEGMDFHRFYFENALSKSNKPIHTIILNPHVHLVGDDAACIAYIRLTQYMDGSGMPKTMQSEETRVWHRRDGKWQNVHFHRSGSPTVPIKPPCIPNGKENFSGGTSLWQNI

Sample 1
SMILES: CN(C)CC#Cc1ccc(OCCCc2sc(N3CCc4cccc(C(=O)Nc5nc6ccccc6s5)c4C3)nc2C(=O)O)c(F)c1
Technique: competition with immobilised ligand
Tested at: 1 µM
Measurement: remaining binding
KIT (Homo sapiens, UniProt P10721, D816H); cell-free assay: 71%
Myosin-IIIb (MYO3B, Homo sapiens, UniProt Q8WXR4); binding: 96%
CILK1 (Homo sapiens, UniProt Q9UPZ9); cell-free assay: 100%
GAK (Homo sapiens, UniProt O14976); cell-free assay: 100%
Tyrosine-protein kinase ABL1, phosphorylated (ABL1, Homo sapiens, UniProt P00519); cell-free assay: 93%
EPHB2 (Homo sapiens, UniProt P29323); cell-free assay: 100%
FLT3 (Homo sapiens, UniProt P36888); cell-free assay: 80%
CAMK2D (Homo sapiens, UniProt Q13557); cell-free assay: 72%

Sample 2
SMILES: COc1cc(C(=O)N2CCC(N3CCN(C)CC3)CC2)ccc1Nc1ncc2c(n1)N(C)c1ccccc1C(=O)N2C
Measurement: inhibition
Receptor tyrosine-protein kinase erbB-4 (Erbb4, Mus musculus, UniProt Q61527); probe labelling, KiNativ, measured: activation loop peptide; brain tissue lysate (mouse); 0.1 µM, added: ATP acyl-phosphate probe: -11.3%
PIP5K1C (mouse); KiNativ ATP probe; mouse brain tissue; 1 µM, ATP site probe: -5%
mouse MAP3K5/MAP3K6/MAP3K7; probe labelling, KiNativ ATP probe; mouse brain lysate; 0.1 µM, LYS1 site IAIkEIPER: -4.3%
human PBMC; probe labeling, inhibitor, KiNativ profiling, measured: DIkGANILR; cell lysate; 1 µM, LYS2 site, added: ADP acyl-phosphate probe: 2.1%
NDR1 (human); probe labelling, KiNativ ADP probe; human PBMC lysate; concentration not given, LYS1 labelled site: -2.5%
human PBMC; probe labeling, inhibitor, KiNativ profiling; cell lysate; concentration not given, domain 1, LYS2 site, added: ATP acyl-phosphate probe 0.1 µM: 16.4%
AMPKa1 and AMPKa2 (mouse); probe labelling, KiNativ, measured: VAVkILNR peptide, Lys1 site; brain tissue lysate (mouse); 0.1 µM, added: ATP acyl-phosphate probe: -4%
FYN (mouse); probe labelling, KiNativ ATP probe; mouse brain lysate; 1 µM, LYS1 labelled site: 0.6% and -8.2%

Sample 3
Cell line: mouse MPNST tumor cells
Technique: high-content nuclear imaging
Measured: cell number
Tested at: 10 µM
Time: 12 h
Setting: mean of 2 replicates
Relative to: plate mean
Reading: higher = more cells
Measurement: nuclei count
c1ccc(-c2ccc(C(c3ccccc3)n3ccnc3)cc2)cc1 (stereo not shown): 1.47 z-score
CNc1ncnc2c1ncn2C1OC(CO)C(O)C1O (stereo not shown): -1.56 z-score
CC(C(O)c1ccc(O)cc1)N1CCC(Cc2ccccc2)CC1 (stereo not shown): 0.588 z-score
CCc1ccc(/C=C2/SC(=S)NC2=O)cc1: 2.09 z-score
CC(C)(C(=O)c1cccnc1)c1cccnc1: 1.92 z-score and 0.666 z-score
CC(=O)NCCSc1nc2cscc2c(=O)n1-c1ccc(OCC(F)(F)F)cc1: 2.53 z-score

Sample 4
Target: Dual specificity protein kinase CLK2 (CLK2, Homo sapiens, UniProt P49760)
Chain of UniProt P49760 (whole entry, looked up): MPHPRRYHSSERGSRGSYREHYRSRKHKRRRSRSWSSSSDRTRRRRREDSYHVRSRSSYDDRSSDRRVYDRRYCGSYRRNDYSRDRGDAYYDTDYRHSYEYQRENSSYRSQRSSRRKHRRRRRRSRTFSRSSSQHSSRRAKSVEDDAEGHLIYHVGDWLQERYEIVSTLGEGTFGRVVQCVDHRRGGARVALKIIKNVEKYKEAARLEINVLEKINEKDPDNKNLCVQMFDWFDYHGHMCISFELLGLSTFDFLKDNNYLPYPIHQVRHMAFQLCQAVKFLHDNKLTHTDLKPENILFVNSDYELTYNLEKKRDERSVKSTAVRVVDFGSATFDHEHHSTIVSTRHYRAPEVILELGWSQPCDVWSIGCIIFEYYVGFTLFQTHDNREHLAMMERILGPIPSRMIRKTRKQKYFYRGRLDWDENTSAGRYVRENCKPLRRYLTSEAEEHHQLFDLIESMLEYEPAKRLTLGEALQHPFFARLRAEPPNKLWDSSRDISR
Observed: enzyme activity
Mode: inhibitor
Tested at: 0.5 µM
Relative to: control
Measurement: remaining activity
COc1ccc(C(=O)Nc2sc3c(c2C(N)=O)CCCC3)cc1OC: 86.5%
Oc1ccc(-c2nc(-c3ccncc3)c(-c3ccc(F)cc3)[nH]2)cc1: 105%
COc1cc2ncnc(Nc3ccc(Oc4ccccc4)cc3)c2cc1OC: 103%
Cc1nc(-c2ccccc2)c(-c2ccncc2)o1: 98.2%
CC(C)[C@H](CO)Nc1nc(Nc2cc(N)cc(Cl)c2)c2ncn(C(C)C)c2n1: 17.7%
CO[C@H]1C[C@@H]2CC[C@@H](C)[C@@](O)(O2)C(=O)C(=O)N2CCCC[C@H]2C(=O)O[C@H]([C@H](C)C[C@@H]2CC[C@@H](O)[C@H](OC)C2)CC(=O)[C@H](C)/C=C(\C)[C@@H](O)[C@@H](OC)C(=O)[C@H](C)C[C@H](C)/C=C/C=C/C=C/1C: 102%
O=c1c2ccccc2[nH]c(=S)n1CCN1CCC(=C(c2ccc(F)cc2)c2ccc(F)cc2)CC1: 87.8%
Nc1ccc2ncnc(NCCc3ccc(Oc4ccccc4)cc3)c2c1: 83%
COc1ccc(OC)c2c(=S)c3ccccc3[nH]c12: 81.2%
O=C1NC(=O)C(c2cn(CCCO)c3ncccc23)=C1c1cnccn1: 98.9%
NCCNc1ncc(C(N)=O)c(Nc2cccc(C(F)(F)F)c2)n1: 94.4%
Nc1[nH]nc2nc3ccccc3nc12: 96.1%
COc1cc2nccc(Oc3ccc(NC(=S)NC(=O)c4ccccc4C)cc3)c2cc1OC: 107%
CCOC(=O)c1c(C)[nH]c(/C=C2\C(=O)Nc3ccccc32)c1C: 86%
Cn1sc(=O)n(Cc2ccccc2)c1=O: 98.5%

Some of these lines once more (sample 3):
c1ccc(-c2ccc(C(c3ccccc3)n3ccnc3)cc2)cc1 (stereo not shown): 1.47 z-score
CNc1ncnc2c1ncn2C1OC(CO)C(O)C1O (stereo not shown): -1.56 z-score
CC(C(O)c1ccc(O)cc1)N1CCC(Cc2ccccc2)CC1 (stereo not shown): 0.588 z-score
CCc1ccc(/C=C2/SC(=S)NC2=O)cc1: 2.09 z-score
CC(C)(C(=O)c1cccnc1)c1cccnc1: 1.92 z-score and 0.666 z-score
CC(=O)NCCSc1nc2cscc2c(=O)n1-c1ccc(OCC(F)(F)F)cc1: 2.53 z-score
